# Published values of several laboratories.
# A part holds a random share of what one study measured. Substitutions count along the parent as printed.

# Sample 1
# Target: Probable WRKY transcription factor 50, DNA-binding domain (WRKY50, Arabidopsis thaliana, UniProt Q8VWQ5, residues 99-173)
# Sequence of UniProt Q8VWQ5 (99-173, looked up): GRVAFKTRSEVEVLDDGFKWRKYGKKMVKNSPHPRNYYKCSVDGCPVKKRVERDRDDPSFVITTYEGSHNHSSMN
# Technique: DNA-protein interaction ELISA
# Molecule type: double-stranded DNA, one strand shown
# Sample: in vitro, bacterial lysate
# Tested at: not given
# Notes: whole dsDNA probe, crude lysate protein
# Baseline: highest signal in screen
# Direction: higher = stronger binding
Sequence,relative absorbance
AAAAAAAGTTGTACTTATTATACTTTAAAA,20.6 % of maximum
AAAAAATCCGTTCCCATTTGTCCGTCAAAA,27.4 % of maximum
AAAAAATTCGTTTTTCGTCTTTCATTAAAA,37.5 % of maximum
AAAAAACCCGGTTGGAGAAAATAATTAAAA,23.8 % of maximum
AAAAAAGTATAACGTGTTGTTGACCGAAAA,55 % of maximum
AAAAAACCGGCACGATTTGGATATTCAAAA,17.6 % of maximum
AAAAAATAAATCGCGGCTACTGCTTCAAAA,23.5 % of maximum
AAAAAACTCTTAAGGAAAGTTCCGACAAAA,48.1 % of maximum

# Sample 2
# Target: UDP-N-acetylglucosamine--peptide N-acetylglucosaminyltransferase 110 kDa subunit (OGT, Homo sapiens, UniProt O15294)
# Sequence of UniProt O15294 (whole entry, looked up): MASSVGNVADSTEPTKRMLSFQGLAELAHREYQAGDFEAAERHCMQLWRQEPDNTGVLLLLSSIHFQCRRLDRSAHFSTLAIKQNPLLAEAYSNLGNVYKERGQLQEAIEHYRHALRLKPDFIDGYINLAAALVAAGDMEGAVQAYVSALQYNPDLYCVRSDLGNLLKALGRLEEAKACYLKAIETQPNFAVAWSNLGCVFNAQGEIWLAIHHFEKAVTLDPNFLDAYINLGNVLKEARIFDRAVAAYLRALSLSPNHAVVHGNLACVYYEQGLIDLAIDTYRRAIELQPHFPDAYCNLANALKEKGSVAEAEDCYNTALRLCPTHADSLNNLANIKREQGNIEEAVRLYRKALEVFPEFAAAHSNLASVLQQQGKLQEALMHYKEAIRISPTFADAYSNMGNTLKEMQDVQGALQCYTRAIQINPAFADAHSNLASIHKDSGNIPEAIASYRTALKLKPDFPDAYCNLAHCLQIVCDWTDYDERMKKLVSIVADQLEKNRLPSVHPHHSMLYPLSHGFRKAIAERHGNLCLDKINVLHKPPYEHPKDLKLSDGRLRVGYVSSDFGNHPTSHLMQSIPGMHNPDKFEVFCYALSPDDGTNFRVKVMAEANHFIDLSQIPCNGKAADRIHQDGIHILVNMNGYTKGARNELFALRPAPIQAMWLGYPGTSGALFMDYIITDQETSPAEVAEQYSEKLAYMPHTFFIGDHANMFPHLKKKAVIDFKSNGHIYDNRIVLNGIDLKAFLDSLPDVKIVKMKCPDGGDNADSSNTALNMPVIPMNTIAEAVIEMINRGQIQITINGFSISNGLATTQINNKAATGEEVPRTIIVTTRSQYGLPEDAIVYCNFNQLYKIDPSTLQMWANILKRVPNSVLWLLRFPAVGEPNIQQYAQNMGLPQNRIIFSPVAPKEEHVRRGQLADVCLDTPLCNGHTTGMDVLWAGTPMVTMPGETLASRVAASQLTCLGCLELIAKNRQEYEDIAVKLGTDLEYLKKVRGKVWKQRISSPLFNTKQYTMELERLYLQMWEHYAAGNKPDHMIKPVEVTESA
# Observed: binding
# Technique: phage display NGS
# Molecule type: peptide
# Notes: panning round 2
# Baseline: input library
Molecule,minimum log2 enrichment ratio
WERHYHHWSTYTPSA,2.38
YNIYNPAYQIAYKF,2.95
WPMKHLHDRWSSHPF,2.29
ERVYDPMYQIRIDFT,2.04

# Sample 3
# Substance: PhoQ, residues 284 288 289 292 302 303 AAQSYM
# Technique: Sort-seq
# Measured: YFP reporter
# Sample: E. coli
# Notes: PhoQ-PhoP variant library
# With: 10 µM Mg2+
# Baseline: high Mg2+ state
# Direction: higher = stronger signaling
target,fold induction
"PhoP, residues 12 14 15 18 19 LHTVL (Escherichia coli, UniProt P23836)",8.32
"PhoP, residues 12 14 15 18 19 NQCAL (Escherichia coli, UniProt P23836)",5.04
"PhoP, residues 12 14 15 18 19 TQAML (Escherichia coli, UniProt P23836)",24.8

# Sample 4
# Target: Protein C-ets-1 (ETS1, Homo sapiens, UniProt P14921, residues 1-441, Y397A, full length assumed)
# Sequence of UniProt P14921 (whole entry, unmodified, looked up): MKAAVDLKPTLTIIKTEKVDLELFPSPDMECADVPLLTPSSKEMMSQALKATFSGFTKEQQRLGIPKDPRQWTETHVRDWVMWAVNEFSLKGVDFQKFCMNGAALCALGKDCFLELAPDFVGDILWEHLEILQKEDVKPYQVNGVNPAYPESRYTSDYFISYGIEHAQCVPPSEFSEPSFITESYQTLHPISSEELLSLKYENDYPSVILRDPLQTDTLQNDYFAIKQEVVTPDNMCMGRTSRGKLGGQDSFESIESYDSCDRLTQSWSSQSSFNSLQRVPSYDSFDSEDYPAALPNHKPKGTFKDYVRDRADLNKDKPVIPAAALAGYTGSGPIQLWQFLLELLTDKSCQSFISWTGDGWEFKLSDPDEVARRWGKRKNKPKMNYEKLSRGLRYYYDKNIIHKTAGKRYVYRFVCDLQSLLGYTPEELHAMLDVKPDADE
# Technique: protein-binding microarray
# Molecule type: double-stranded DNA, one strand shown
# Sample: in vitro
# Tested at: not given
# Notes: k-mer, scored over probes, only values ≥0.25
# Direction: higher = stronger binding
Sequence,E-score
GTATGACA,0.297
TCTGTCAA,0.281
GTTTGCTA,0.303
TCCGCCAA,0.252
CGGCAATC,0.287
ATCCGGAT,0.362
ATTTGTCG,0.399
CGACACAA,0.291

# Sample 5
# Target: CCND3, cyclin fold, Cln2 fusion (human)
# Technique: yeast growth competition, sequencing
# Sample: yeast
# Notes: weak parent motif
# Baseline: not given
# Direction: higher = stronger binding
# Starting sequence: viral docking peptide; TSVRRALFTGGSD
Substitution,normalised enrichment score
L7M,0.221
S2M,0.421
S12M,0.0345
T9E,0.13
S2R,0.151
V3C,0.211
F8K,0.238
L7A,0.159
S2K,0.143
R4I,0.0606
A6L,0.305
R5Y,0.0855
S2G,0.2
R5A L7A,0.0478
V3T,0.0449
R5S,0.0698
V3F,0.606
S12Y,0.31
S2P,-0.143
F8D,0.123
A6V,0.25
A6H,0.313
S12D,0.183
